Published values gathered from unrelated publications.
Parts stem from different laboratories: compare values within a part only.

Block 1 — technique: protein binding microarray; molecule type: double-stranded DNA, one strand shown; sample: in vitro; concentration: not given; reference: not given; reading: higher = stronger binding
Target: Histone acetyltransferase KAT6A, winged helix 2, GST fusion (KAT6A, Homo sapiens, UniProt Q92794, residues 85-181)
Setting: 8-mer, flanks averaged, mean of 2 arrays, mostly near background
Construct (chain): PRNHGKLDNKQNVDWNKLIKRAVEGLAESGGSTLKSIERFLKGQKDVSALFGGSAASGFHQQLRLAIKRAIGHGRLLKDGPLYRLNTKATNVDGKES
The E-score of `CGTCGAGC` is reported as 0.0898.
For `TAGAGCCA`, the E-score was -0.258.
The E-score of `CACTGAGG` is reported as 0.0369.
With `TAACAGGA` the E-score was -0.0436.
`AGATGAAT` has an E-score of -0.09.
The E-score of `AAATCCTT` is reported as 0.0331.
`CTATTGCC` has an E-score of -0.144.
`ACCACCCG` has an E-score of 0.114.
With `CGTTATGC` the E-score was -0.122.
With `AATTCCGC` the E-score was 0.0689.
For `AATGGTTA`, the E-score was -0.0713.
`AACTAGAA` has an E-score of 0.0233.
For `CCAGACCC`, the E-score was -0.12.
With `GCAAGAAA` the E-score was 0.16.
For `CCTCGGTA`, the E-score was -0.0397.
The E-score of `AATGCGTA` is reported as -0.0448.
With `AAGAATCA` the E-score was 0.0811.

Block 2 — technique: RNA Bind-n-Seq; molecule type: RNA; sample: in vitro; concentration: not given; reference: input RNA pool; reading: higher = stronger binding
Target: RING finger protein unkempt homolog, zinc fingers 1-6, GST-SBP tag (UNK, Homo sapiens, UniProt Q9C0B0, residues 30-357)
Setting: RNA with constant flanks, human and mouse sites, ends assumed
Construct (chain): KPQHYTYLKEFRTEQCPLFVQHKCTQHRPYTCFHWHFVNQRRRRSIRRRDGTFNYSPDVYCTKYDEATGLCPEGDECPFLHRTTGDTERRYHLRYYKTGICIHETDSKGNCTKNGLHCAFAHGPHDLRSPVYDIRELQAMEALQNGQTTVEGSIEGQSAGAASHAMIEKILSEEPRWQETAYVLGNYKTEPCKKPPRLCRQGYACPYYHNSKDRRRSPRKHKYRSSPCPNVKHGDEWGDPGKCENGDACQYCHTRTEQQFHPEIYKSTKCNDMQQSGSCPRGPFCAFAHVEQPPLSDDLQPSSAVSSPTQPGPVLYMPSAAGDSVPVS
`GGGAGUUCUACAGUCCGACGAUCGGGGUGCCAGCGCUGACGCAGAACCUACCAAGGAUACUCAGAAAAGAACGUCCUAUAUCAUUAGGGAUUUUCCCUCUACCUGCUGGAGAUGGAUUGCUUACACCUGACACUCAGAAAGGACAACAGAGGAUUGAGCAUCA` gave a bound/input enrichment of 0.219 ratio.
For `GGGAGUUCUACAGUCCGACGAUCAGUAUAUGUAAAUGUCUGUUUUUCAUAAUUGCUCUUUAUAUUGUGUGUUAUCUGACAAGAUAGUUAUUUAAGAAACAUGGGAAUUGCAGAAAUGACUGCAGUGCAGCAGUAAUUAUGGUGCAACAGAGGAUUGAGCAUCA`, the bound/input enrichment was 0.434 ratio.
`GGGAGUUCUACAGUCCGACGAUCAAGAAGCCAACAGUUGAAGAAAGAGCAAAAGCAGAUACUUUAAAGCUUCCACCUACAUUUUUCUGUGGAGUCUGCAGUGAUACUGAUGAGGACAAUGGAAAUGGGGAGGAUUUUCAGUCACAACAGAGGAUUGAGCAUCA` has a bound/input enrichment of 0.2 ratio.
`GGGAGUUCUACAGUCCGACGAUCAGGACAGUGCAGAAUUAAACCGUGUUGAAGACCAGUGGAAAUUGUAUAAUUUAACUUGGAUUUAGGCAGGAAGUGAAAUAUGGGAGGAGUAAAGAAAACUGAAGAAUUUAAAGUUUUCCUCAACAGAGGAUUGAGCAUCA` gave a bound/input enrichment of 0.644 ratio.
The bound/input enrichment of `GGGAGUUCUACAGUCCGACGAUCUGGCCUUGAUUUAGUGACAGUUUAUUCUAAUGGGGACCAUAGGUGUUAUUAGUAAAAAGAUAGUGUACAAGGCCUAAGUUCAGUUUACAUUGUUCUUUGAAAUGAGUUCAUCUUUUGUGUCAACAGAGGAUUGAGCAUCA` is reported as 5.62 ratio.
`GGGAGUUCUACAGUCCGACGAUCCCAGGGGCCCCUCGCCUCCCCUCUGAGGACCGAAGAUGAGCUUCCUCUUCAGCAGCCGCUCUUCUAAAACAUUCAAACCAAAGAAGAAUAUCCCUGAAGGAUCUCAUCAGUAUGAACUCUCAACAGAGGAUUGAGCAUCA` gave a bound/input enrichment of 0.31 ratio.
For `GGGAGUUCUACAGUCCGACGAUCCUGACCAGAGUCUCUGAAGACCCCAUCCAACGCUCCAAUGGCCAGCAACAACACCGCCAGCAUAGCACAAGCCAGGAAGCUGGUAGAACAGCUGAAGAUGGAAGCCAACAUCGACAGGAUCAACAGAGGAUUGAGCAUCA`, the bound/input enrichment was 0.0792 ratio.
`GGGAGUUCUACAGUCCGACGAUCAUUACUUCCAUUCCUGAACUUGCUGACUACAUUAAAGUUUUCAAGCCAAAAAAGCUGACUCUGAAAGGUUACAAACAAUAUUGGUGCACCUUCAAAGACACAUCCAUUUCUUGUUAUAAGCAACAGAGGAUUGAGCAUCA` gave a bound/input enrichment of 0.0985 ratio.

Block 3 — technique: protein-binding microarray; molecule type: double-stranded DNA, one strand shown; sample: in vitro; concentration: 250 nM; setting: 60-bp whole probe; added: salmon DNA 0.4 mg/ml; reference: random background probes; reading: higher = stronger binding; constant ends, left off below: GCCTAGCAC … GTCTTGATTCGCTTGACGCTGCTG
Target: Interferon regulatory factor 7, full length, phosphomimetic (IRF7, Homo sapiens, UniProt Q92985, residues 1-503, S101K/S471D/S472D/S475D/S476D/S477D/S483D/S484D/S487D)
Construct (chain): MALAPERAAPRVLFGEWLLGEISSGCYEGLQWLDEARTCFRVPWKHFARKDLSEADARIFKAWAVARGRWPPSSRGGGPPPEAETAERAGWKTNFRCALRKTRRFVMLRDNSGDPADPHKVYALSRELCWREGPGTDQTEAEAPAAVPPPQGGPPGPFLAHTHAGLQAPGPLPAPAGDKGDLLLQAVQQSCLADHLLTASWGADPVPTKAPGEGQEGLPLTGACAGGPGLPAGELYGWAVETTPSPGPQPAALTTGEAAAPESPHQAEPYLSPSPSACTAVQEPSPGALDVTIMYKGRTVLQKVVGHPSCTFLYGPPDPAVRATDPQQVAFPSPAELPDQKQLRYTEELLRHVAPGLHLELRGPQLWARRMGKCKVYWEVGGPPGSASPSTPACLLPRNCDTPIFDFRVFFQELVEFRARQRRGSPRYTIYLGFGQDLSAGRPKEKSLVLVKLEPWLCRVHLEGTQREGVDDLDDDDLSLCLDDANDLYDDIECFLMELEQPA
`ATAGGTTTCGGGACTGGGTTAGTGCTA` has a log fluorescence of 3.84 z-score.
For `TTTCCCATGAGTCTCAAAATGTGCTAG`, the log fluorescence was 3.44 z-score.
The log fluorescence of `CACGGTATCGGTATCGGGACGTGCTAG` is reported as 1.59 z-score.
With `CTCTATACCCATGTAGAGAGGTGCTAG` the log fluorescence was 1.41 z-score.
The log fluorescence of `GACGGACTGGGTTTCGGCACGTGCTAG` is reported as 0.182 z-score.
`GACGGTATCGGTTTTGGGACGTGCTAG` has a log fluorescence of 3.5 z-score.
The log fluorescence of `TTACATATCAGACTGGATTAGTGCTAG` is reported as 0.324 z-score.
With `TTAGGTTTCCTTTTCCTCTAGTGCTAG` the log fluorescence was 6.79 z-score.
`TTAGATTTTGGGTATCGATTAGTGCTA` has a log fluorescence of 0.469 z-score.
The log fluorescence of `GACGGTATCGATTTTCGGGACGTGCTA` is reported as 2.78 z-score.
`TTAGGTCTCCTTCTTCTTTAGTGCTAG` has a log fluorescence of 0.632 z-score.
`TCACTCACTCACAGACTCACGTGCTAG` has a log fluorescence of 0.193 z-score.
`GACGGTATCGAAACTGGGGACGTGCTA` has a log fluorescence of 1.29 z-score.
`TCATATTTACCTCTCACACTGTGCTAG` has a log fluorescence of 0.659 z-score.
The log fluorescence of `TTAGATATCAGACGGGATTAGTGCTAG` is reported as -0.266 z-score.
The log fluorescence of `GACGTTTTCAGACTGGAGACGTGCTAG` is reported as 0.638 z-score.
`TTAGGTTTCGACTATCGGTAAGTGCTA` gave a log fluorescence of 6.23 z-score.
`TCACTGCTACCCTCTGAAACTGTGCTA` gave a log fluorescence of -0.756 z-score.
For `TTAGGCATCGACTATCGGTTAGTGCTA`, the log fluorescence was -0.469 z-score.
With `ATGGTCCTCTCTCTATTCAGGTGCTAG` the log fluorescence was 0.515 z-score.
With `TTAGATATGGGGACTGGATTAGTGCTA` the log fluorescence was -0.0128 z-score.
With `GACGGACTGGGTATGGGGACGTGCTAG` the log fluorescence was -0.372 z-score.
The log fluorescence of `GAAATTCTCATTTCCAATTAGTGCTAG` is reported as 1.58 z-score.
For `GACGATTTCGGGACTGGAGTCGTGCTA`, the log fluorescence was 0.144 z-score.
`GATGGACTGGGTCTCGGGACGTGCTAG` has a log fluorescence of -0.32 z-score.

Block 4 — technique: RNA Bind-n-Seq; molecule type: RNA; sample: in vitro; concentration: 365 nM; reference: no-protein control; reading: higher = stronger binding
Target: RNA binding protein fox-1 homolog 2, RRM domain, GST-SBP tag (RBFOX2, Homo sapiens, UniProt O43251-10, residues 100-194)
Setting: natural RNA segment, single round, ends assumed
Construct (chain): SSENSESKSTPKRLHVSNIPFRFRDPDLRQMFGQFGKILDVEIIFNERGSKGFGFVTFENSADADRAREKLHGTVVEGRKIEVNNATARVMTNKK
For `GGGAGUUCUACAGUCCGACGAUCUACCGUGCUGUAUACCUAUCUACUUUUCUGGGCAGCUGAUGGAGCUCUGGAAGAAACACCAAAGCCUGCUGGAAAGGAAAGCGUUUGAAGAAAGAAUUGUCCUCCUGUAGUGGAAUUCUCGGGUGCCAA`, “RBNS enrichment (R)” read 0.445.
`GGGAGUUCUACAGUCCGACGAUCCCCACCUUUCUUGCACACUGUGAUUAUGUGCUAAGAAAAGGGUGGAGUUGGGAGGACAAUUUCACUUGAACAGGUUUCUGUUCUUCUGAGGUCAGGGUGGGGAGGAUGUCUGGAAUUCUCGGGUGCCAA` — result for “RBNS enrichment (R)”: 0.695.
`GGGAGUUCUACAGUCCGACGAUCGGGCAAUGUCACCCUCCUGGUAGGUAGUCCUAGACCCCUCCUGCCUCUUGCUCUCCAAUGGGGAGACCAUGUUUCCUAGAGUGUGAGCUGCCCCUCACCCCCUGAAAAGCUGGAAUUCUCGGGUGCCAA`: “RBNS enrichment (R)” 0.227.
`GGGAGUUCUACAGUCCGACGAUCGAGGUCCGCCGCCAUCCACACCCAGCCAAGACACCUCAGAGGCCAUAGGGACAACCUCCUUGCUGGCCAACACCUGCUGGAGCAGGGGCACAGGUCCCAGCAACUGAUCCUGGAAUUCUCGGGUGCCAA` — result for “RBNS enrichment (R)”: 0.28.
Under “RBNS enrichment (R)”, `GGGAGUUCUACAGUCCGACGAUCGCUGCAGUUCAAUACAACUGCUCUUUUCACACGACUCCCUAAACUCCUUGUAACCUUCUGUAACUAUUGGAUGACGCUUUCUCCAGCUUAGCCCUAAAUAAAGCACAGUUUGGAAUUCUCGGGUGCCAA` is recorded as 0.3.
For `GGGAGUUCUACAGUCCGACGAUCGCCUCUUGUCUGCAAUAGGAUGUUCAUGUACAAAAGUGGUUUUCUUUAAUAAAAGGUGGAAACAUUGUGUGAUUGUCCAUCCCUCUGAAAAUGGAUGAUAAAAGAAUAAAUGGAAUUCUCGGGUGCCAA`, “RBNS enrichment (R)” read 0.483.
`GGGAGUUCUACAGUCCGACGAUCACCAGUUCUGCCAGUAACUGGUUUUAGAACCUUGGGCAAGUUAAAGAAUGUCUCCCAGCCUCAGUUUCCCUAUUUGUAAAAUGGAAAUAAUGGUAGCUACCUCAAACCUCUGGAAUUCUCGGGUGCCAA` — result for “RBNS enrichment (R)”: 1.8.
Under “RBNS enrichment (R)”, `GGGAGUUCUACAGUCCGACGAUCUAGUGUUCCCAGAGCACUUUGCAACUCCCUGGGUAAGAGGGACGACACCUCUGGUUUUUCAAUACCAAUUACAUGGAACUUUUCUGUAAUGGGUACAAUGAAGAAGUUUCUGGAAUUCUCGGGUGCCAA` is recorded as 0.422.
`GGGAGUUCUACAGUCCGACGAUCGUUUGUUUUUUCAAAAUGGAAGUAAUUUAGAUUUGUUCUCCUCAUACAUAAAAUGAUUUUAGUUCAGUUUUAACCAGUGAAAACUUUGUUUUUAUGAAAAAAAAGGAAAAUGGAAUUCUCGGGUGCCAA` — result for “RBNS enrichment (R)”: 1.06.

Some of these lines once more (block 3):
The log fluorescence of `GACGGTATCGATTTTCGGGACGTGCTA` is reported as 2.78 z-score.
`TTAGGTCTCCTTCTTCTTTAGTGCTAG` has a log fluorescence of 0.632 z-score.
`TTAGGTTTCGACTATCGGTAAGTGCTA` gave a log fluorescence of 6.23 z-score.
`TCACTCACTCACAGACTCACGTGCTAG` has a log fluorescence of 0.193 z-score.
The log fluorescence of `GACGGACTGGGTTTCGGCACGTGCTAG` is reported as 0.182 z-score.
